Measurements pooled from the literature.
A part holds a random share of what one study measured. Changes are numbered by the printed parent chain.

Set 1
Target: Histone acetyltransferase KAT6A, winged helix 1, GST fusion (KAT6A, Homo sapiens, UniProt Q92794, residues 1-85)
Method: protein binding microarray
Form: double-stranded DNA, one strand shown
Matrix: in vitro
Tested at: not given
Notes: 8-mer, flanks averaged, mean of 2 arrays, mostly near background
Baseline: not given
Direction: higher = stronger binding
Construct (chain): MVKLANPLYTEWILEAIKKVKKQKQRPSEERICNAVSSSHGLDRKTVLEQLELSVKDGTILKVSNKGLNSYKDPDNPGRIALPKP
| Oligonucleotide | E-score |
| --- | --- |
| AATGAGCT | -0.187 |
| GGAGTTTA | -0.129 |
| ACGCTTAC | 0.145 |
| CCAAAACC | -0.0569 |
| AATAATCC | -0.0621 |
| CGGAACAC | 0.153 |
| AGAAGGCT | -0.266 |
| CTCTGAAC | -0.0711 |
| AAGCGGCG | 0.415 |

Set 2
Target: CCND1, cyclin fold, Cln2 fusion (human)
Method: yeast growth competition, sequencing
Matrix: yeast
Notes: strong parent motif
Baseline: not given
Direction: higher = stronger binding
Starting sequence: PKN2 docking peptide (human); VSAVRKLDFSDTM
| Change | normalised enrichment score |
| --- | --- |
| V4N | 2.49 |
| V4C | 5.35 |
| T12D | 5.54 |
| S2N | 4.81 |
| V4K | 5.12 |
| A3W | 0.401 |
| S10G | 5.48 |

Set 3
Target: Interferon regulatory factor 5, full length, phosphomimetic (IRF5, Homo sapiens, UniProt Q13568-2, residues 1-514, S451D/S453D/S456D/S462D)
Method: protein-binding microarray
Form: double-stranded DNA, one strand shown
Matrix: in vitro
Tested at: 940 nM top
Notes: 60-bp whole probe
Together with: salmon DNA 0.4 mg/ml
Baseline: random background probes
Direction: higher = stronger binding
All sequences stand within: GCCTAGCAC … GTCTTGATTCGCTTGACGCTGCTG
| Oligonucleotide | fitted relative affinity |
| --- | --- |
| TTAGATATCAGTATCGCTTAGTGCTAG | 1.72 z-score |
| CTAGGTATCCTTTTCCTTTAGTGCTAG | 0.479 z-score |
| GAGAGAGCTTGTCTGCAGCCGTGCTAG | -0.858 z-score |
| GACGAACTGGGGTATTGAGACGTGCTA | 0.165 z-score |
| TTAGGACTGGAGTATCGGTTAGTGCTA | 2.59 z-score |
| GACGAAATGAGACTGGAGACGTGCTAG | -0.345 z-score |
| TTAGGTTTCGGTTTCGGATAGTGCTAG | 15.3 z-score |
| TTAGGACTGGGTTACGGTTAGTGCTAG | -0.157 z-score |
| TTAGATCTCAGACTGGATCAGTGCTAG | -0.545 z-score |

Single results of other studies
| Substance | target | assay | system | conditions | how to read | quantity | result |
| --- | --- | --- | --- | --- | --- | --- | --- |
| PhoQ, residues 284 288 289 292 302 303 HSYLQF | PhoP, residues 12 14 15 18 19 IFFTR (Escherichia coli, UniProt P23836) | Sort-seq, measured: YFP reporter | E. coli | PhoQ-PhoP variant library, together with: 10 µM Mg2+ | baseline: high Mg2+ state, higher = stronger signaling | fold induction | 1.78 |
